Measurements from different studies.
Parts stem from different laboratories: compare values within a part only.

Sample 1
Target: Sal-like protein 4, full length isoform B (SALL4, Homo sapiens, UniProt Q9UJQ4-2, residues 1-616)
Technique: universal PBM
Molecule type: double-stranded DNA, one strand shown
Sample: in vitro
Concentration: not given
Setting: 8-mer, flanks averaged, mean of replicates
Reading: higher = stronger binding
Target sequence (chain): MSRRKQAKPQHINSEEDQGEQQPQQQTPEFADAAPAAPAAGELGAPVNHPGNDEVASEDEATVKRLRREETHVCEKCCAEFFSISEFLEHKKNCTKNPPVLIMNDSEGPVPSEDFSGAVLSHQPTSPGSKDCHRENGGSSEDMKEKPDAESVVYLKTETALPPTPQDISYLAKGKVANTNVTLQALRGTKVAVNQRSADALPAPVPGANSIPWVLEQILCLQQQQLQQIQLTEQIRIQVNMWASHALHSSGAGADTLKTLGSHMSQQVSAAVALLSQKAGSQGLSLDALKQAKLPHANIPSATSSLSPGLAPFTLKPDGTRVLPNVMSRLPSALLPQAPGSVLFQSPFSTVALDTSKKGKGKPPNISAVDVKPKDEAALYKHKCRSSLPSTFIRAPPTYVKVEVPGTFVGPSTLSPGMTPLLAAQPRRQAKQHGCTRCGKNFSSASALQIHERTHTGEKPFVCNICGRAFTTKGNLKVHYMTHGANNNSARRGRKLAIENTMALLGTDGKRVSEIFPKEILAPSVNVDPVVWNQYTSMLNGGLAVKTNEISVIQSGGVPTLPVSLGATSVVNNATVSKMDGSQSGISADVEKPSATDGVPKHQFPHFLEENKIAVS
| Strand | E-score |
| --- | --- |
| CGAACCCC | -0.376 |
| GCTGGACA | -0.122 |
| AAGCTCCC | -0.303 |
| ACCCTTGC | -0.172 |

Sample 2
Target: Histone acetyltransferase KAT6A, winged helix 2, GST fusion (KAT6A, Homo sapiens, UniProt Q92794, residues 85-181)
Technique: protein binding microarray
Molecule type: double-stranded DNA, one strand shown
Sample: in vitro
Concentration: not given
Setting: 8-mer, flanks averaged, mean of 2 arrays, mostly near background
Baseline: not given
Reading: higher = stronger binding
Construct (chain): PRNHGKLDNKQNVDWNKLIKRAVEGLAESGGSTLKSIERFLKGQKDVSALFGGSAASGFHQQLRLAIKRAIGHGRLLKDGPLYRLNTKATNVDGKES
| Strand | E-score |
| --- | --- |
| AGCTTAAG | -0.0149 |
| CCTTGGCC | -0.0789 |
| ATCTTTCG | 0.00633 |
| ACGACTTG | -0.119 |

Sample 3
Target: Ras GTPase-activating protein-binding protein 1, RRM domain (G3BP1, Homo sapiens, UniProt Q13283)
Sequence of UniProt Q13283 (whole entry, looked up): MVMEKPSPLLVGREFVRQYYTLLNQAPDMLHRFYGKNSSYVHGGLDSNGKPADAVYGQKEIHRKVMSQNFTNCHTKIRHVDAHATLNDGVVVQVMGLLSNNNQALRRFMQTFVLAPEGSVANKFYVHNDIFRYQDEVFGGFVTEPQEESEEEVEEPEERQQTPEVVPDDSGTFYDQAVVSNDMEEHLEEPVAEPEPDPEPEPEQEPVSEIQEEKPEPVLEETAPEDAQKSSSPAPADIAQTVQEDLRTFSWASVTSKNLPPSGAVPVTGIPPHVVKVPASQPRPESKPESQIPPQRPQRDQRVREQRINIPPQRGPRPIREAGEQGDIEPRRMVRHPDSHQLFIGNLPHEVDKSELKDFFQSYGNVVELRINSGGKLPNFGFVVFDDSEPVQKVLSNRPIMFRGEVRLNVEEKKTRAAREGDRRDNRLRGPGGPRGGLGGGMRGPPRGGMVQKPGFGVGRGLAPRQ
Technique: RNA Bind-n-Seq
Molecule type: RNA
Sample: in vitro
Concentration: 1 µM
Setting: whole 134-nt RNA, ends assumed
Added: 150 mM KCl
Baseline: input library
Reading: higher = stronger binding
| Strand | log2 enrichment |
| --- | --- |
| GGGAGUUCUACAGUCCGACGAUCCUCAAGUCCUGUGCUACACAUCGUAUGUACCGAAUCGGGAAGGGAAGGGAAGGGAAAGUAUUAUGUUACGCCGUUCGGAUCUGCACUUCCUGGAAUUCUCGGGUGUCAAGG | 1.18 |
| GGGAGUUCUACAGUCCGACGAUCUCCUCAAGUCCUGUGCUACACAUCGUAUGUACCGAAUCGGGAGGAGGGAGGAAAGUAUUAUGUUACGCCGUUCGGAUCUGCACUUCCAGCUGGAAUUCUCGGGUGUCAAGG | -0.194 |
| GGGAGUUCUACAGUCCGACGAUCAGUCCUGUGCUACACAUCGUAUGUACCGAAUCGGGAAAAAAAGGGAAAGGGUUUGGGAAAGUAUUAUGUUACGCCGUUCGGAUCUGCACUUGGAAUUCUCGGGUGUCAAGG | 0.271 |

Mixed results
| Substance | target | assay | system | setting | how to read | measurement | result |
| --- | --- | --- | --- | --- | --- | --- | --- |
| PhoQ, residues 284 288 289 292 302 303 AGCYAI | PhoP, residues 12 14 15 18 19 IQSYL (Escherichia coli, UniProt P23836) | Sort-seq, measured: YFP reporter | E. coli | PhoQ-PhoP variant library, added: 10 µM Mg2+ | baseline: high Mg2+ state, higher = stronger signaling | fold induction | 7.21 |

For quick reference, copied from above (sample 1):
| Strand | E-score |
| --- | --- |
| ACCCTTGC | -0.172 |
